Assay results from different studies.
Each line is one published result; not all experiments were run side by side.
TMPRSS2: Transmembrane protease serine 2 (TMPRSS2, Homo sapiens, UniProt O15393)
UniProt O15393, sequence (whole entry, looked up): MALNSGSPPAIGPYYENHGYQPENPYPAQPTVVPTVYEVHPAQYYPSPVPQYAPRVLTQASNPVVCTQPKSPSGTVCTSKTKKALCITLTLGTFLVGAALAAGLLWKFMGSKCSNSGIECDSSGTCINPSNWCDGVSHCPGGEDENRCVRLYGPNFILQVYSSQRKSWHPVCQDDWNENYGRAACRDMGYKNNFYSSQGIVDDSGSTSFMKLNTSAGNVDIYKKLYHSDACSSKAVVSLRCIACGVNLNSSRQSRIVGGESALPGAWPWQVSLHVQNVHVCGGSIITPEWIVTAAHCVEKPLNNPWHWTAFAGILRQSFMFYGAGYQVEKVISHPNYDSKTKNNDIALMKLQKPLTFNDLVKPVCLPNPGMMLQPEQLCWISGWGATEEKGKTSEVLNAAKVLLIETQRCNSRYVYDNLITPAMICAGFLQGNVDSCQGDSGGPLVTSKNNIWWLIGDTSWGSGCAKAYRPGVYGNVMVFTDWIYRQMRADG
PFF0160c E182D: Dihydroorotate dehydrogenase (quinone), mitochondrial (PFF0160c, Plasmodium falciparum, UniProt Q08210, E182D)
CTSL: Procathepsin L (CTSL, Homo sapiens, UniProt P07711)
UniProt P07711, sequence (whole entry, looked up): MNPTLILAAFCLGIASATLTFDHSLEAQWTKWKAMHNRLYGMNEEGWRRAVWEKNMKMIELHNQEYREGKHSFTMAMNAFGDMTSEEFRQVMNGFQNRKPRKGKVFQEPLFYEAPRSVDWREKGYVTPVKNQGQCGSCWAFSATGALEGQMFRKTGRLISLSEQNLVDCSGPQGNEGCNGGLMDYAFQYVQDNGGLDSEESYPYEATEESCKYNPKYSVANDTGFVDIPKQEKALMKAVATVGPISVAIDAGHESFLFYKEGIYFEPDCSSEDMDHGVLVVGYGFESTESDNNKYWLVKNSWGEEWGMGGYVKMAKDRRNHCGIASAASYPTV
ADRB1: Beta-1 adrenergic receptor (ADRB1, Homo sapiens, UniProt P08588)
UniProt P08588, sequence (whole entry, looked up): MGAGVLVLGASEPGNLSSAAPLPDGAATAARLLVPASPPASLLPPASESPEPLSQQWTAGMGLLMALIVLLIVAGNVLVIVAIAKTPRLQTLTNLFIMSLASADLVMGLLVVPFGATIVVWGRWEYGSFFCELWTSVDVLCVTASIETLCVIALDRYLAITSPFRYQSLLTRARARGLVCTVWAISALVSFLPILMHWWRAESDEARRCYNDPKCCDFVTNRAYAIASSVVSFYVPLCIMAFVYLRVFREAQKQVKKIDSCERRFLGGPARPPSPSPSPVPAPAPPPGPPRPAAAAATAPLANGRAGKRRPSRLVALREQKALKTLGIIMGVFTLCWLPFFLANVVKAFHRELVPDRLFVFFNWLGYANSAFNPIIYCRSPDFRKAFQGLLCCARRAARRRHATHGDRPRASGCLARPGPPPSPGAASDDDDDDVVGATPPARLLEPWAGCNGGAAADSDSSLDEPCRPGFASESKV
UniProt O43318, sequence (whole entry, looked up): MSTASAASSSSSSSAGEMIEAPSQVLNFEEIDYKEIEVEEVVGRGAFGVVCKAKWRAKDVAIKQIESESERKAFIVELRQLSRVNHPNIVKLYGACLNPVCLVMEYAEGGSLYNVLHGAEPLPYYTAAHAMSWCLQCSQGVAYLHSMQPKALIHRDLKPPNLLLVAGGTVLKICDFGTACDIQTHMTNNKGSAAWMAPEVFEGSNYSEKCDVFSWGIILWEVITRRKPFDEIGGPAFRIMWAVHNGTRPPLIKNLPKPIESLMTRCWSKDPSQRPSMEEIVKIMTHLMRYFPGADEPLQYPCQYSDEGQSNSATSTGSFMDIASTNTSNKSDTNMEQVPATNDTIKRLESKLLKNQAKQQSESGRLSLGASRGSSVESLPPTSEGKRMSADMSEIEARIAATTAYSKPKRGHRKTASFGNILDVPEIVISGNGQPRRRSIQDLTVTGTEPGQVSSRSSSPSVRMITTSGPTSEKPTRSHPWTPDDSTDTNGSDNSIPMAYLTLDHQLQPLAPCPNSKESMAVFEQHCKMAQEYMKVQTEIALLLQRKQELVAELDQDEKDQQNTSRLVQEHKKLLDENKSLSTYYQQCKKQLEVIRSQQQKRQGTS
UniProt Q15059, sequence (whole entry, unmodified, looked up): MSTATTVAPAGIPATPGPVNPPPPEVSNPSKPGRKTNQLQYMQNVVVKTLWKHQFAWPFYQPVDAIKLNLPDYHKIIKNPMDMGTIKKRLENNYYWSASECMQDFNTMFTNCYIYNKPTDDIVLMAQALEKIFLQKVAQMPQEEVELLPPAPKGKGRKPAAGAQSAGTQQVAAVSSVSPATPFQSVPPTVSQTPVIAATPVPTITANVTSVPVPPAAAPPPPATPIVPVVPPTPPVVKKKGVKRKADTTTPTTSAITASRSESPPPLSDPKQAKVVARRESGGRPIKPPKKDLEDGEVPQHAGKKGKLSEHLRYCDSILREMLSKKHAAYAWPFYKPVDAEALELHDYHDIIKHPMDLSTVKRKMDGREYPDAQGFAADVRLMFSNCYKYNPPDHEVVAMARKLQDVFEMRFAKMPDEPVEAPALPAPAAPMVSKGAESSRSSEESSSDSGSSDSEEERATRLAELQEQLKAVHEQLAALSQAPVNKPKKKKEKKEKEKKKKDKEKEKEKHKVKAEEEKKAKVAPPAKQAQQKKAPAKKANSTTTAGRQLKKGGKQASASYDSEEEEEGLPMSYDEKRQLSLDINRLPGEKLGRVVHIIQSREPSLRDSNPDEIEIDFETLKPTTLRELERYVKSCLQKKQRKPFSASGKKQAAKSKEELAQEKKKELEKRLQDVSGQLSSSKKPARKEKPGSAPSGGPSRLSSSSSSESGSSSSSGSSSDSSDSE
UniProt P21554, sequence (whole entry, looked up): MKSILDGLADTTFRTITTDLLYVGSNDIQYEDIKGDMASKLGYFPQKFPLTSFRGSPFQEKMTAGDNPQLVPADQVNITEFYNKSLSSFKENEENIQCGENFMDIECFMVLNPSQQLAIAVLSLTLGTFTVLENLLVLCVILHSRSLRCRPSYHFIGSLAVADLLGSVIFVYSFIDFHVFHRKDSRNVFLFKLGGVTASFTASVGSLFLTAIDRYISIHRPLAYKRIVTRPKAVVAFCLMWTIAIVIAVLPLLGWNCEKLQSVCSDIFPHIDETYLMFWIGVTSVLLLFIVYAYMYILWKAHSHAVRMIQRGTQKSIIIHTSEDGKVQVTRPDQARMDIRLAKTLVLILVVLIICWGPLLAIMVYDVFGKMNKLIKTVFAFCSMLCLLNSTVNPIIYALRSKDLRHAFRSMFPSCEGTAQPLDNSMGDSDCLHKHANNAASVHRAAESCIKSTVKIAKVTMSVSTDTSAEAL
UniProt P41144, sequence (whole entry, looked up): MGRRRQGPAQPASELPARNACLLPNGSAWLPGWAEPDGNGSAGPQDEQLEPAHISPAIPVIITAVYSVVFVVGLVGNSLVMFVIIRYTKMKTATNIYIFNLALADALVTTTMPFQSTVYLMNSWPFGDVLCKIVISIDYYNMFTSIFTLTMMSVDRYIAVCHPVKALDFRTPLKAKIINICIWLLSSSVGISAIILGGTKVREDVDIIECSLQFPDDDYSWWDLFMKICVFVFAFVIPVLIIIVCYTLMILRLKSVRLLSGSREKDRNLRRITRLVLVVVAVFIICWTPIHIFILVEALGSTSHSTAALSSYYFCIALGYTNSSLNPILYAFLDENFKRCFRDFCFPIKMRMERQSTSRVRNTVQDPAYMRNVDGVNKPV
UniProt P31152, sequence (whole entry, looked up): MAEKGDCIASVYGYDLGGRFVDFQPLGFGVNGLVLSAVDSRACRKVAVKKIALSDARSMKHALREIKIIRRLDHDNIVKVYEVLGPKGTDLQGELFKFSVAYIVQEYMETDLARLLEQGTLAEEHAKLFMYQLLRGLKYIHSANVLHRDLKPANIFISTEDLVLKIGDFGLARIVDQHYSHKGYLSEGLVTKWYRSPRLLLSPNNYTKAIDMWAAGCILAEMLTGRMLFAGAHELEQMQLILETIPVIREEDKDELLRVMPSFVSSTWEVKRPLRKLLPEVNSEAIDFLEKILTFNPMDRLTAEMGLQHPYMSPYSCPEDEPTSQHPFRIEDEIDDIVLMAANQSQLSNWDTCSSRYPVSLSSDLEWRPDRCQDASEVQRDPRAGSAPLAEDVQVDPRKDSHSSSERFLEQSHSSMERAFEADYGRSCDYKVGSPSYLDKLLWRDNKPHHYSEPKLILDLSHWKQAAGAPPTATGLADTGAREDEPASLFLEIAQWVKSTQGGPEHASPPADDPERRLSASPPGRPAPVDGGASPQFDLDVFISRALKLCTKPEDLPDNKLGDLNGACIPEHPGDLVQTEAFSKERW
UniProt P14416, sequence (whole entry, looked up): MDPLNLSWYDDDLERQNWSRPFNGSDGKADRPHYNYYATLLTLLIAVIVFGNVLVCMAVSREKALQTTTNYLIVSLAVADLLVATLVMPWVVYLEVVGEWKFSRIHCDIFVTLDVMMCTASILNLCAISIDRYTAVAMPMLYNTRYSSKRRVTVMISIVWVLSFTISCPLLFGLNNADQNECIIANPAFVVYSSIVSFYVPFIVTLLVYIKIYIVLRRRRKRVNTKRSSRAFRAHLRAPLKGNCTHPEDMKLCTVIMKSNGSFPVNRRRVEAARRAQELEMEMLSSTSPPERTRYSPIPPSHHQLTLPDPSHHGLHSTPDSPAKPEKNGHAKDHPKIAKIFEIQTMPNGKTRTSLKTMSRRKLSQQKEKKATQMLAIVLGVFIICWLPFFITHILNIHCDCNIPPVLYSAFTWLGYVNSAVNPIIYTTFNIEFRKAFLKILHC
UniProt P41143, sequence (whole entry, looked up): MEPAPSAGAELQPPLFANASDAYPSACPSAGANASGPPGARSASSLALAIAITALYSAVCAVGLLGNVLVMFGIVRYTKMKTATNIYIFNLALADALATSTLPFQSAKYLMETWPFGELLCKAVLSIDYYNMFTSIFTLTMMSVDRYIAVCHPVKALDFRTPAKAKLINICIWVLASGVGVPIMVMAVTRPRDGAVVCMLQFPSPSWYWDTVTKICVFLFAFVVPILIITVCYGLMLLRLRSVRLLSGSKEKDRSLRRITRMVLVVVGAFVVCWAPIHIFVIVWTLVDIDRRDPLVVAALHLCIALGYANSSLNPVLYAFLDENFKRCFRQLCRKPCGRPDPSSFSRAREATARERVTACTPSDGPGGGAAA

Structure (SMILES) | target | test | conditions | endpoint | value
CC[C@H](C)[C@H](NC(=O)[C@H](CCc1ccccc1)NC(=O)CCc1ccccc1)C(=O)N[C@@H](CCCNC(=N)N)C(=O)c1nc2ccccc2s1 | TMPRSS2 | enzyme activity, inhibitor | 1 nM | activity vs control | 88%
COc1ncccc1-c1cnn2ccc(N3CCN(C(=O)OC(C)C)CC3)nc12 | Mitogen-activated protein kinase 4 (MAPK4, Homo sapiens, UniProt P31152) | binding, competition with immobilised ligand | 1 µM | remaining binding | 100%
COc1ccc(C(=O)NCC(C)(C)c2nc(-c3ccc(Cl)c(O)c3)c(-c3ccncc3)[nH]2)cc1OCCN(C(C)C)C(C)C | PFF0160c E182D | enzyme activity, inhibitor, absorbance |  | IC50 | 3490 nM
C[C@H](NC(=O)[C@H](CCC(N)=O)NC(=O)[C@@H](N)CCCCNC(=N)N)C(=O)N[C@H](CCCNC(=N)N)C(=O)c1nc2ccccc2s1 | TMPRSS2 | enzyme activity, inhibitor | 1 nM | activity vs control | 91%
O=C1C=CC(=O)c2c(O)cccc21 | CTSL | enzyme activity, inhibitor | 100 µM | remaining activity | 64%
N=C(N)NCCCCC(=O)N[C@@H](CCC(N)=O)C(=O)N[C@@H](Cc1ccc(C(=O)c2ccccc2)cc1)C(=O)N[C@H](CCCNC(=N)N)C(=O)c1nc2ccccc2s1 | TMPRSS2 | enzyme activity, inhibitor | 1 nM | activity vs control | 91%
CN1CCC[C@H]1c1cccnc1 | D(2) dopamine receptor (DRD2, Homo sapiens, UniProt P14416) | ligand displacement | 50 µM | inhibition | 3.23%
Oc1cc(O)cc(/C=C/c2ccc(O)cc2O)c1 | CTSL | enzyme activity, inhibitor | 100 µM | remaining activity | 46.1%
CN1C(=S)N(c2ccccc2)C(=O)/C1=C1/C(=O)N(C)c2ccc(Cl)cc21 | Alpha-glucosidase MAL12 (MAL12, Saccharomyces cerevisiae S288c, UniProt P53341) | enzyme activity, inhibitor, absorbance | 50 µM | inhibition | 21.5%
N=C(N)NCCC[C@H](NC(=O)[C@H](Cc1ccc(-c2ccccc2)cc1)NC(=O)[C@H](Cc1ccc(O)cc1)NC(=O)CCc1ccccc1)C(=O)c1nc2ccccc2s1 | TMPRSS2 | enzyme activity, inhibitor | 1 nM | activity vs control | 104%
Oc1cccc(N2C[C@H]3CC[C@@H](C2)N3CCCc2ccccc2)c1 | Delta-type opioid receptor (OPRD1, Homo sapiens, UniProt P41143) | cAMP, agonist |  | Emax | 67.7%
CCCCCc1ccccc1C/C=C\C/C=C\C/C=C\CCCC(=O)OC(CO)CO | Cannabinoid receptor 1 (CNR1, Homo sapiens, UniProt P21554) | β-arrestin recruitment, agonist |  | Emax | 4%
CCN(CC)CCCC[C@H](NC(=O)[C@H](CC(C)C)NC(=O)[C@H](C)NC(=O)[C@H](Cc1ccccc1)NC(=O)c1ccc(C(C)(C)C)cc1)C(=O)N[C@@H](CO)C(=O)OC | Bromodomain-containing protein 3, BD1 (BRD3, Homo sapiens, UniProt Q15059) | thermal stability, DSF | 25 µM | ΔTm | 0.53 °C
Cc1nn(C)cc1-c1nc2c(N3CCN(Cc4ccc(Cl)cc4)CC3)c(Cl)cnc2[nH]1 | Mitogen-activated protein kinase kinase kinase 7 (MAP3K7, Homo sapiens, UniProt O43318) | binding, competition with immobilised ligand | 1 µM | remaining binding | 100%
C[C@@H](O)[C@@H]1CN([C@H](Cc2ccc3ccccc3c2)CN2CCC[C@H]2CN2CCNC[C@@H]2Cc2ccc3ccccc3c2)CCN1CCc1ccc(Cl)c(Cl)c1 | Kappa-type opioid receptor (OPRK1, Cavia porcellus, UniProt P41144) | ligand displacement, radioligand | 0.5 µM, pH 7.5 | remaining binding | 117%
CC(C)CC(=O)OC[C@H]1O[C@@](C#N)(c2ccc3c(N)ncnn23)[C@H](O)[C@@H]1O | ADRB1 | cell-free assay | 20 µM | inhibition | 8%
N=C(N)NCCC[C@H](N)C(=O)N[C@@H](CCC(N)=O)C(=O)N[C@@H](Cc1ccc([N+](=O)[O-])cc1)C(=O)N[C@H](CCCNC(=N)N)C(=O)c1nc2ccccc2s1 | TMPRSS2 | enzyme activity, inhibitor | 1 nM | activity vs control | 42%
[2H]c1c([2H])c([C@]2([2H])CCCN2C(=O)C(C)(C)Oc2ccc3cn[nH]c3c2)c([2H])c([2H])c1C([2H])([2H])[2H] | Mitogen-activated protein kinase kinase kinase kinase 5 (MAP4K5, Homo sapiens, UniProt Q9Y4K4) | binding, competition with immobilised ligand | 1 µM | remaining binding | 100%
CC(=O)N[C@@H](CCC(N)=O)C(=O)N[C@@H](Cc1ccccc1)C(=O)N[C@@H](CCCNC(=N)N)C(=O)CN1CCCCC1 | TMPRSS2 | enzyme activity, inhibitor | 1 nM | activity vs control | 98%
C#Cc1n[nH]c2c(-c3cn([C@@H](C)c4ccccn4)c(=O)[nH]c3=O)cc(F)cc12 | Calcium/calmodulin-dependent protein kinase type II subunit beta (CAMK2B, Homo sapiens, UniProt Q13554) | enzyme activity, inhibitor | 0.1 µM | inhibition | 6.4%
Cc1cc(Nc2ccc(C)c(Cl)c2)n2nc(C(F)(F)F)nc2n1 | PFF0160c E182D | enzyme activity, inhibitor, absorbance |  | IC50 | 156 nM
Nc1ncc(-c2nc(N3CCOCC3)nc(N3CCOCC3)n2)c(C(F)F)n1 | Serine/threonine-protein kinase PLK4 (PLK4, Homo sapiens, UniProt O00444) | binding, competition with immobilised ligand | 10 µM | remaining binding | 69%
CC(C)C[C@H](NC(=O)[C@H](CCc1ccccc1)NC(=O)CCc1ccccc1)C(=O)N[C@@H](CCCNC(=N)N)C(=O)c1nc2ccccc2s1 | TMPRSS2 | enzyme activity, inhibitor | 1 nM | activity vs control | 84%
c1cncc([C@@H]2CCCN2)c1 | ADRB1 | ligand displacement | 50 µM | inhibition | 14%
